Results gathered from unrelated publications.
Numbered parts are unrelated; each lists some results of a single study.

Sample 1 — method: EMSA with sequencing; form: double-stranded DNA, one strand shown; matrix: in vitro; concentration: 10 and 20 nM; baseline: negative control set to 0; direction: higher = stronger binding
Target: Hepatocyte nuclear factor 3-alpha (Foxa1, Mus musculus, UniProt P35582, residues 1-468, full length assumed)
Setting: whole designed probe, mean of two concentrations, ends assumed
Shared flanks, not repeated: GTGAGCGGTGCCCATTGATGGGGAAC … TTTCACTGGGATCGTGGGGAC
Residues (chain): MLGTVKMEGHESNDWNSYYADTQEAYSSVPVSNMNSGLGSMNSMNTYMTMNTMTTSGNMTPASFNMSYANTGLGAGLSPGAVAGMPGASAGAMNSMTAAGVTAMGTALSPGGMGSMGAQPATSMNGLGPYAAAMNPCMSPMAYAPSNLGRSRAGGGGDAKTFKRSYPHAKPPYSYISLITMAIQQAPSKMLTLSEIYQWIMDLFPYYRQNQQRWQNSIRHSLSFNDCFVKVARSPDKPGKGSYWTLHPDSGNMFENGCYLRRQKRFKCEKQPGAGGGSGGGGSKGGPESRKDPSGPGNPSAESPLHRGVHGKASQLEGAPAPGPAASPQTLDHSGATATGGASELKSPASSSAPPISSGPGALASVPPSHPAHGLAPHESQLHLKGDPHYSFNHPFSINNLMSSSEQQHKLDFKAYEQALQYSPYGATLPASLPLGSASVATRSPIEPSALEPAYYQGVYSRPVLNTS
Sequence	normalised bound fraction [ratio]
CAATGGGGTAGGTCAGCCCCAGTGAACTCTCAAATGACCACTGAAGGAGGAAGTGAGTGCAGAGTGTGATACCACTCACATCCCAGCCCAGACTGTTTGCTCAGCTGGGAGGAGTGTTGCTTCTTCCTGCAAATTCGAGATAACACCCCTTCTCATGGCTTCAGGCATCACCTATCTCCTCTAGGCTGCGCTC	0.201
TACTTCTTTCCTTTAACATATGGCATTTGCTTAACCTCTTGGAGAGTTGTGGTTTTCTGACCCTGGAGTTCTGATGGGAAAGATAATGAGAAGAGATTACTTAGCATCTAGGCCAGCAAGCTAAGAAAAACATTGTGCCATGCTAGTATTGACAAGGTGACAGAGAGCCCACACTTGCCTCACATGTTGGCCA	0.00998
AAGACAAATAAGAAAGATATTTCCTCCCCTACATTATCTGGATTTCTCCATGAAACACCCATTATGGCATAGACAAATTGGTTACTATCTTAAGTAATCTTTGGTAGGAAAACTTTGAAAAGGCAACTGAGCTTACTTTTGGGTCATGTGTCACCTGTCAAAAATATAACTCTGGAAAAACTGTAAAGTTGGG	0.109
ATCTTCCCCCTCTTCCTTGCCCCACCAGCTCACCTACGGGGGTTATTTGCAGATAGGAAAATAAATAAAGCCGGCATTCGTTAACGCAGTTCACGCGCATACTGCTGTTTGCTCTGGATCTAACATGGTCCTTTGGCGACGCCAGGCTCCGGGAGAGCAAAGCACCGTGTCAGGGCCATGATCCGGGGTGGCC	0.354
AGGTGAATTGGCTGCTTCCATCCTGGCTTGGAACTTCAGACATAGAAGCCTTGGGACTTTCTCTGACTCATGCCAGGACTTTCTCCAGATTCAGCAAACAAGCATCTCTGTGGATCACGTGACCTTAGCCAGGGATGTTGGTGAAACTGTGTGTTGGTCTAGGTACCTAGCCCATGCTAGGTGCTCATCGAAT	0.0853

Sample 2 — method: RNA Bind-n-Seq; form: RNA; matrix: in vitro; concentration: 1 µM; setting: whole 134-nt RNA, ends assumed; added: 150 mM KCl; baseline: input library; direction: higher = stronger binding
Target: Ras GTPase-activating protein-binding protein 1, C-terminal RGG region (G3BP1, Homo sapiens, UniProt Q13283)
Chain of UniProt Q13283 (whole entry, looked up): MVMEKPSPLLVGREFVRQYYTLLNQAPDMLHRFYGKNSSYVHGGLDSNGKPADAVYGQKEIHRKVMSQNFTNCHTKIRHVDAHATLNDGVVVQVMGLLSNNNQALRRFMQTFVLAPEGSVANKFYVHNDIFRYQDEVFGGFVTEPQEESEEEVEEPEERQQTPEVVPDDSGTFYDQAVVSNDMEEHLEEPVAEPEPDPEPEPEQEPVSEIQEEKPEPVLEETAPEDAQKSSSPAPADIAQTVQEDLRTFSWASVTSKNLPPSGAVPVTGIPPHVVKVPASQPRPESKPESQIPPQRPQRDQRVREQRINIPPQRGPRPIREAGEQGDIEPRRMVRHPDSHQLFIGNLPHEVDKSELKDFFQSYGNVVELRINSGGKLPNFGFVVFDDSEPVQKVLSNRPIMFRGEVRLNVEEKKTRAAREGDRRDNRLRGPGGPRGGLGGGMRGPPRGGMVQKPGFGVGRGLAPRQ
Shared flanks, not repeated: GGGAGUUCUACAGUCCGACGAUC … UGGAAUUCUCGGGUGUCAAGG
Sequence	log2 enrichment
AUAGAUUGCGCAGUCUCUUUGUGGAGAGGACUUGAUCAUUAAAGGAAUCAGCGUUCAUAUAUCCAAUGCCGAACCUAAGCACAAUAGCAA	-0.559
UCCUGUGCUACACAUCGUAUGUACCGAAUCAAAUUUUUUUAAACCCCCAAAUUUUUAAAAAAGUAUUAUGUUACGCCGUUCGGAUCUGCA	-0.265
CAAGUCCUGUGCUACACAUCGUAUGUACCGAAUCGGUUUGGUUUGGGGUUUGGGGAAAGUAUUAUGUUACGCCGUUCGGAUCUGCACUUC	-0.752
CCUCAAGUCCUGUGCUACACAUCGUAUGUACCGAAUCGGGAGGGAGGAGGGGAAAGUAUUAUGUUACGCCGUUCGGAUCUGCACUUCCAG	1.17
AAGUCCUGUGCUACACAUCGUAUGUACCGAAUCGGUUUUGGGUUUUGGGGUUUUGGGAAAGUAUUAUGUUACGCCGUUCGGAUCUGCACU	-1.02
CCUGUGCUACACAUCGUAUGUACCGAAUCGGCCCCCCCGGCCCCCCCGGGCCCCCCCGGGAAAGUAUUAUGUUACGCCGUUCGGAUCUGC	-1.27
UAACUUUAGAGGAGGAUCUGAUGGAUAUGGCAGUGGACGUGGAUUUGGGGAUGGCUAUAAUGGGUAUGGGGGAGGACCUGGAGGUGGCAA	-0.552
AAGUCCUGUGCUACACAUCGUAUGUACCGAAUCGGUUUUUUUGGAAAGGAAAAAGGAAAGUAUUAUGUUACGCCGUUCGGAUCUGCACUU	-2.12
UGGCCCUGGUGGCAUGCGGGGAGGAAGAGGUGGCCUCAUGGAUCGUGGUGGUCCCGGUGGAAUGUUCAGAGGUGUCCGUGGUGGAGACAG	3.15

Sample 3 — method: RNA Bind-n-Seq; form: RNA; matrix: in vitro; concentration: 365 nM; baseline: no-protein control; direction: higher = stronger binding
Target: RNA binding protein fox-1 homolog 2, RRM domain, GST-SBP tag (RBFOX2, Homo sapiens, UniProt O43251-10, residues 100-194)
Setting: natural RNA segment, single round, ends assumed
Shared flanks, not repeated: GGGAGUUCUACAGUCCGACGAUC … UGGAAUUCUCGGGUGCCAA
Target sequence (chain): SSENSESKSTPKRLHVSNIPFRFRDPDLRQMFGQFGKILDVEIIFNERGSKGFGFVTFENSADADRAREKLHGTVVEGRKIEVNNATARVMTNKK
Sequence	RBNS enrichment (R)
UGGAAAGCAUGGUCUACAAUUGGUUGUUAAAUUCUGAAGCUAUGAAGAAUAAAUGUUUCAACUUUGGAUUAUGAAACCCCAUUUAUGAUUUUUUAAAUACACUUGAAAUA	18.2
AGUAGGACCAGGCCACCGCUAGUGCUUGUGGAGAUCACAGCCCCACCCUUGUCCCUCAGCAACAUCCCAUCUAAGCAUUCCACACUGCAGGGAGGAGUGGUACUUAAGCU	0.556
CCACGUGUAUAACAGCUCUGCUGGACACCCAAGAAAGCCAUGGGAACGCCAACUGGAAAGGUCCCCUUCCCCAGGGGAGCCUGCGAAGGAGAGGUUCUGUAGAAUCCAAG	0.389
GCCGGGACAGCUUUCCUCUCAGUCAUUGUUCACCCCACUUGAAAAUUCAGACAAGAAAACUUUGCUUAAAAGAUUUCAUGUGUGGGAACCACAGUUCCUGGCUGCCUUUC	0.407
CAAAAUAGACAAGGUCACUUAUCCUGCCAUAUUGUCUCUUUGUAUAUAAAGAUGUUCAUAUUUUAGGAAUAUUUGCAUAACUCAAGUGGAUAAAACAUUAAAAUGAAAAC	0.285
UCUUUAAACAGUUCUGAUGUAAUUUCUCAACAAAAUGUGGCUUUUAGCCUGUCAGUGAUCUAUUGGACCAAACCUUCUGCACACUCGGCCAGUUCCCUCUCCAAUGUCCG	0.232
AAAAAUAAUAAAUGGGUCCAGUCAGCCUGUAAUCGGUGCAAGCCAAGAACUCUUAACUGGAAGACGUUGUACUGUUGUGUAGAGCCUGAACCCAAACCCUGCGGUACCCA	0.447
ACUGUGUCUUUUUUCAUCUUUGUAUCUUUCAUGCACCUAGCAUAGUGCUUUGCACAUAGUAGUCACUCAGUGUUUGUUAAAUAAAGCUAUUAGUGUCAUUAAAAUUCAAA	0.905

Sample 4 — method: protein-binding microarray; form: double-stranded DNA, one strand shown; matrix: in vitro; concentration: 2540 nM top; setting: 60-bp whole probe; added: salmon DNA 0.4 mg/ml; baseline: random background probes; direction: higher = stronger binding; shared flanks, not repeated: GCCTAGCAC … GTCTTGATTCGCTTGACGCTGCTG
Target: Interferon regulatory factor 3, full length, phosphomimetic (IRF3, Homo sapiens, UniProt Q14653, residues 1-427, S386D/S396D/S398D/S402D/T404D/S405D)
Target sequence (chain): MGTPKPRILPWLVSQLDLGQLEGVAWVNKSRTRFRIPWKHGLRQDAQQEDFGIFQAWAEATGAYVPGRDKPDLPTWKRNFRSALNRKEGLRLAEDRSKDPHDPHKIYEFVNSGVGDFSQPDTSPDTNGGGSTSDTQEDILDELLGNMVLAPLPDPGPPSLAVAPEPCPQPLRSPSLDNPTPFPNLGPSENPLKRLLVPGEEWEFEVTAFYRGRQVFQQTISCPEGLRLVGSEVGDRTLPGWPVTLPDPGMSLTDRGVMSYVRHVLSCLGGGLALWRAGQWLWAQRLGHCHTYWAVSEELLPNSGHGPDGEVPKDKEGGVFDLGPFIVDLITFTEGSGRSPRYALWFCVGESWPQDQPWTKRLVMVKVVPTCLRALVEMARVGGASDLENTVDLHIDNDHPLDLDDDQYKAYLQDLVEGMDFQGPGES
Sequence	fitted relative affinity
GACGATTTCGGATTTCGAGACGTGCTA	4.08 z-score
TCATCTTTTTTTCTTTTACTGTGCTAG	1.89 z-score
TTAGGTTTCGACACTGTGTTAGTGCTA	2.57 z-score
GACGGTGTCGGACTGGGGACGTGCTAG	0.638 z-score
TCATTTTTCTCAACCGTACTGTGCTAG	1.64 z-score
GACGGTATCCTTATCCTGTCGTGCTAG	5.98 z-score
TTTGGTTTCCTTCTCCTTTAGTGCTAG	10.6 z-score
TAGAATGTCCTTTCTCCATGGGTGCTA	4.78 z-score
TTAGGTTTCCTTTTCCTATAGTGCTAG	11.8 z-score
ATGTCTTCCCCTCTCTTTCCGTGCTAG	1.04 z-score
GACGATTTCAGGCTCGAGACGTGCTAG	0.849 z-score
GACGATACCGGGTTTCGAGACGTGCTA	0.739 z-score
TTAGATATCGGGTACCGATTAGTGCTA	1.03 z-score
GACGATATCAGTAGCGAGACGTGCTAG	-0.0849 z-score
TCATTTCCAATTCTCTTACTGTGCTAG	4.22 z-score
GACGGTCTGCTTATCCTGACGTGCTAG	0.0281 z-score
TCACTTCTGTATTCATGACTGTGCTAG	1.39 z-score
GACGAACTGGGGACTGGTGACGTGCTA	-0.676 z-score
TCAATTTTCAATTCCTGACTGTGCTAG	1.69 z-score

Some of these lines once more (sample 2):
Sequence	log2 enrichment
CCUCAAGUCCUGUGCUACACAUCGUAUGUACCGAAUCGGGAGGGAGGAGGGGAAAGUAUUAUGUUACGCCGUUCGGAUCUGCACUUCCAG	1.17
AAGUCCUGUGCUACACAUCGUAUGUACCGAAUCGGUUUUGGGUUUUGGGGUUUUGGGAAAGUAUUAUGUUACGCCGUUCGGAUCUGCACU	-1.02
CCUGUGCUACACAUCGUAUGUACCGAAUCGGCCCCCCCGGCCCCCCCGGGCCCCCCCGGGAAAGUAUUAUGUUACGCCGUUCGGAUCUGC	-1.27
UAACUUUAGAGGAGGAUCUGAUGGAUAUGGCAGUGGACGUGGAUUUGGGGAUGGCUAUAAUGGGUAUGGGGGAGGACCUGGAGGUGGCAA	-0.552
AAGUCCUGUGCUACACAUCGUAUGUACCGAAUCGGUUUUUUUGGAAAGGAAAAAGGAAAGUAUUAUGUUACGCCGUUCGGAUCUGCACUU	-2.12
UGGCCCUGGUGGCAUGCGGGGAGGAAGAGGUGGCCUCAUGGAUCGUGGUGGUCCCGGUGGAAUGUUCAGAGGUGUCCGUGGUGGAGACAG	3.15
